Assay results of several laboratories.
Lines come from different studies, so protocols differ. Numbers after ± are the reported error. Values after ≈ are worked out from the molar mass of the structure shown.
Sequence of UniProt Q9UHD2 (whole entry, looked up): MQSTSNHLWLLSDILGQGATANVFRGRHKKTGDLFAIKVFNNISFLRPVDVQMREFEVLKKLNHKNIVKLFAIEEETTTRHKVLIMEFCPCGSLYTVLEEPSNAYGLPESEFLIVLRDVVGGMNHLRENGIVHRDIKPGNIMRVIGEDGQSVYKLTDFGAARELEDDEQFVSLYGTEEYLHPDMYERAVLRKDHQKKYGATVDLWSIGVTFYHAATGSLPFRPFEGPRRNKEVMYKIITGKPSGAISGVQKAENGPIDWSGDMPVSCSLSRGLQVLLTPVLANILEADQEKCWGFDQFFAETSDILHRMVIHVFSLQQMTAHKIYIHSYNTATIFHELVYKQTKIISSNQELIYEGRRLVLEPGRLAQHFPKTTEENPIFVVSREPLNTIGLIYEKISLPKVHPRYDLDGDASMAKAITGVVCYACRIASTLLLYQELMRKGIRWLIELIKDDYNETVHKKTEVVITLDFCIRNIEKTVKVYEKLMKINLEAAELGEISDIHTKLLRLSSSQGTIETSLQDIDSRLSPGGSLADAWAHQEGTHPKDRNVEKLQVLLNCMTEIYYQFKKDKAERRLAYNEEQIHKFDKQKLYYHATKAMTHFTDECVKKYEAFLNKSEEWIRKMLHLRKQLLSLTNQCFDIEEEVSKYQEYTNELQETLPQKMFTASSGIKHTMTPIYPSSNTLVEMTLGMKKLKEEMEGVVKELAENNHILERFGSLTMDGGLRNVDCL

OC(CCN1CCCCC1)(c1ccccc1)C1CC2C=CC1C2 (stereo not shown)  change, EEG Alpha power, in O1-Pz (resting-state EEG; healthy elderly humans; oral, 4 mg, eyes open, LS mean; relative to: baseline): -7.8%
c1coc(-c2n[nH]cc2-c2ccnc3ccccc23)c1  log2 fold change (CDC5 (Candida albicans); kinase binding, MIB/MS competition; Candida albicans lysate; 1 µM; relative to: DMSO): -0.05
CC[C@@H]1[C@H](F)C(=O)N[C@@H]1COc1nccc2cc(C(N)=O)c(OC)cc12  IC50 (TBK1 (Homo sapiens, UniProt Q9UHD2); ATP probe binding, KiNativ profiling, item: Lys1 probe site; THP-1 cell lysate): > 5 µM
Oc1ccccc1-c1n[nH]cc1-c1ccnc2ccccc12  log2 fold change (CAK1 (Candida albicans); kinase binding, MIB/MS competition; Candida albicans lysate; 10 µM; relative to: DMSO): 0.29
CN[C@H](CC(C)C)C(=O)N[C@H]1C(=O)N[C@@H](CC(N)=O)C(=O)N[C@H]2C(=O)N[C@H]3C(=O)N[C@H](C(=O)N[C@H](C(=O)O)c4cc(O)cc(O)c4-c4cc3ccc4O)[C@H](O)c3ccc(c(Cl)c3)Oc3cc2cc(c3O[C@@H]2O[C@H](CO)[C@@H](O)[C@H](O)[C@H]2O[C@H]2C[C@](C)(N)[C@H](O)[C@H](C)O2)Oc2ccc(cc2Cl)[C@H]1O  MIC50 (Enterococcus faecalis; compound-intermediate; pH 5.5): 1 mg/L (≈ 0.69 µM)
N#Cc1ccc2c(c1)[C@H]1CCCN(C(=O)c3ccc4[nH]cnc4c3)[C@H]1C2  cortisol level change (human; 10 mg, end of trial; relative to: baseline): -117 nmol/L
CC(C)NCC(O)c1ccc(O)c(O)c1 (stereo not shown)  sarcomere length (mouse ventricular cardiomyocytes; dose not given, 0.027 s): 1.8 µm
CC(=O)NC[C@H]1CN(c2ccc(N3CCOCC3)c(F)c2)C(=O)O1  MIC90 (Enterococcus faecalis; agar dilution; vancomycin-susceptible): 2 mg/L (≈ 5.93 µM)
Cc1cc(OC(C)C)ccc1C(=O)C(C)(C)NC(=O)c1sccc1C  inhibition (Botrytis cinerea; germ tube elongation; B05.10; 1 µg/mL): 95.8 ± 4.4%
Cn1cc(-c2ccc(-c3cncc(Cl)c3N3CCC4(CCNC4=O)CC3)cc2)cn1  log2 fold change (COLO 205; gene expression, microarray, item: EMP1 mRNA; concentration not given, 6 h; relative to: untreated cells): 3.73
C[C@@H](O)[C@@H](CO)NC(=O)[C@@H](CCCNC(=N)N)NC(=O)[C@@H]1CCCN1C(=O)[C@@H]1CSSC[C@H](NC(=O)[C@H](Cc2ccccc2)NC(=O)CN2CCN(CC(=O)O)CCN(CC(=O)O)CCN(CC(=O)O)CC2)C(=O)N[C@@H](Cc2ccc(O)cc2)C(=O)N[C@@H](Cc2ccccc2)C(=O)N[C@@H](CCC(N)=O)C(=O)N[C@@H](CC(N)=O)C(=O)N1 [gallium-68 labelled]  radiochemical purity (PBS; 0 h, 37 °C): > 99%
CC(C)C[C@H](NC(=O)C[C@H](O)[C@H](CC(C)C)NC(=O)[C@H](Cc1c[nH]cn1)NC(=O)CNC(=O)[C@@H](NC(=O)[C@H](C)NC(=O)[C@H](Cc1c[nH]c2ccccc12)NC(=O)[C@H](CCC(N)=O)NC(=O)[C@@H](Cc1ccccc1)NC(=O)COCCOCCNC(=O)CCC(C(=O)O)N1CCN(CC(=O)O)CCN(CC(=O)O)CCN(CC(=O)O)CC1)C(C)C)C(N)=O (stereo partly shown) [lutetium-177 labelled]  tissue uptake (BALB/c nu/nu mice, kidneys; intravenous, 750 pmol, 1 h, with: PA 300 µg): 4.8 ± 2.2 %ID/g
CC(=O)N(C)[C@H]1CCN(C(=O)c2cnc3c(c2)C[C@](C)(c2ccc(F)cc2)N3)C1  pantothenic acid level (vanin activity; human, whole blood ex vivo stimulated; 30 mg, 1 h post-dose; relative to: baseline): 13.5%

Repeated from above:
CC(C)NCC(O)c1ccc(O)c(O)c1 (stereo not shown)  sarcomere length (mouse ventricular cardiomyocytes; dose not given, 0.027 s): 1.8 µm
Oc1ccccc1-c1n[nH]cc1-c1ccnc2ccccc12  log2 fold change (CAK1 (Candida albicans); kinase binding, MIB/MS competition; Candida albicans lysate; 10 µM; relative to: DMSO): 0.29
